Assay results from different studies.
Compare with care: the assays were run in different laboratories. Values joined by “and” are separate records of one study, mostly repeats; a detail may differ. Numbers after ± are the reported error.

C=CC(=O)N1CCCC(n2c(=O)c3ncccc3n(Cc3ccc(Oc4ccccc4)cc3)c2=O)C1 (stereo not drawn) — IC50 (DB; cell proliferation, MTT; 72 h): 0.625 µM
CC(=O)NCCOCCOCCNC(=O)c1cc(C(=O)N2CCNCCNCCNCC2)c(O)c(C(=O)N2CCNCCNCCNCC2)c1 — IC50 (PK-59; cell growth or viability, MTT; 24 h): > 1000 µM
O=C(Nc1cc(-c2ccnc3[nH]ccc23)c(Cl)cn1)[C@H]1CCC[C@@H](NC(=O)C(F)(F)F)C1 — IC50 (JeKo-1; cell growth or viability; 72 h): 0.0255 µM
COc1ccc2c(c1)Cc1c-2nc(N)c(C#N)c1-c1ccc(CO)o1 — IC50 (HBP-ALL; cell viability, CellTiter-Glo; no inhibition at 100 µM): 23.2 µM
CC1(C)CC(=O)C(C2C3=C(CC(C)(C)CC3=O)Oc3ccc(Br)cc32)=C(O)C1 (stereo not drawn) — IC50 (3T3-L1; cell growth or viability, MTT; 72 h): 10.2 µg/mL
CNS(=O)(=O)Nc1nccc(Cc2c(C)c3ccc(Oc4ncccc4F)cc3oc2=O)c1F — IC50 (NCI-H1648; cell viability; 7 days): 0.0185 µM
CC1(C)CC(=O)C2=C(C1)Oc1c(O)cccc1C2n1nnc2ccccc21 (stereo not drawn) — IC50 (3T3-L1; cell growth or viability, MTT; 72 h): 75.8 µg/mL
N#Cc1c(N)nc2c(c1-c1ccc[nH]1)Cc1cc(O)ccc1-2 — IC50 (HBP-ALL; cell viability, CellTiter-Glo; no inhibition at 100 µM): 12 µM
C=C1C(=O)OC2C1CCC(C)(O)C13C=CC(C)(C21)C1(C3)C(=O)OC2C3C(C)C(=O)CC3C(=C)CC(OC(=O)C(C)=CC)C21 (stereo not drawn) — IC50 (AML12; lipid accumulation, Nile Red staining; together with: palmitate/oleate): 8.43 ± 1.21 µM
CCCC(=O)[O][Pt]([Cl])([Cl])[O]C(=O)CCC.N.N — IC50 (A549/DDP cisplatin-resistant; MTT; 48 h, together with: survivin siRNA 10 nM transfected 24 h before): 13.5 ± 4.03 µM
CC[C@H]1CC[C@H]2[C@@H]3C[C@@H](O)[C@@]4(O)C[C@H](N)CC[C@]4(C)[C@H]3CC[C@]12C — IC50 (HMC3; nuclear intensity, high-content imaging; geometric mean): 1.04 µM
Cn1ncc(-c2ccc3c(=O)[nH]nc(CN)c3c2)c1-c1c(F)c(Cl)cc(OC2CC2)c1C#N — IC50 (KARPAS-299; cell viability, inhibitor, CellTiter-Glo; 120 h, baseline-subtracted): 0.06 µM
O=C(CCNc1cccc2c1C(=O)N(C1CCC(=O)NC1=O)C2=O)NCCOCCOCCOCCN1CCC(CNC(=O)c2cccc(-c3noc(C(F)(F)F)n3)c2)(c2nc(-c3ccccc3)cs2)CC1 (stereo not drawn) — IC50 (JeKo-1; cell growth or viability; 7 days): 2.27 µM
CCOc1cncc(-c2ccc(NC(=O)C3(c4ccnc(NS(=O)(=O)C5CC5)n4)CCOCC3)nc2)n1 — IC50 (KYSE-70; cell proliferation, CellTiter-Glo; 72 h, Oesophagus cancer): 0.094 µM
NC(=O)c1ccc(-c2ccccc2Cl)c2c3c([nH]c12)CC[C@@H](N)C3 — IC50 (BGC-823; cell growth or viability): 0.0285 µM
COc1cc(-c2cn(C)c(=O)c3cnccc23)cc(OC)c1Cn1ccnc1 — IC50 (Kasumi 1; cell growth or viability, ATP luminescence): 2.9 µM
CC1(C)CC(=O)C(C2C3=C(CC(C)(C)CC3=O)Oc3ccc(Cl)cc32)=C(O)C1 (stereo not drawn) — IC50 (3T3-L1; cell growth or viability, MTT; 72 h): 12.4 µg/mL
CC(C)c1ccc(N(C)c2ccc3c(c2)OCC[C@H]3CNc2cnccc2C(=O)O)cc1 — IC50 (JeKo-1; cell growth or viability, ATP luminescence; 7 days): 0.0018 µM
COC(=O)N1c2ccc3c(nc(Cc4ccccc4)n3[C@@H]3CCC[C@@H](C(=O)O)C3)c2CC[C@@H]1C — IC50 (UACC-893; cell growth or viability, ATP luminescence; 10 days): 0.26 µM
CC1CS(=O)(=O)CCN1/N=C/c1ccc([N+](=O)[O-])o1 (stereo not drawn) — translation activity (Trypanosoma cruzi; reporter mRNA translation, inhibitor, item: Renilla luciferase mRNA; cell-free extract; concentration not given; baseline: positive over negative control): 84.7% and 125%
CCn1nc(Cl)c2c1-c1cnc(N)c(c1)O[C@H](C)c1cc(F)ccc1-c1nn(C)cc1C2 — IC50 (Ba/F3 CLIP1-LTK; cell viability): 0.0019 µM
O[C@@H](COc1ccc2cc(Br)ccc2c1)Cn1ccnc1 — relative translation (Trypanosoma cruzi; reporter mRNA translation, inhibitor, item: capped polyadenylated Renilla luciferase mRNA; cell-free extract; concentration not given; baseline: control RNA): 89.4%
CCCCCCCCCC(=O)Oc1c(C)c(OC)c2c(c1C)OC(=O)C(CCCCCCCC)C2(O)C=Cc1ccccc1 (stereo not drawn) — IC50 (FaDu; cell growth or viability, SRB; 72 h): > 50 µM
COc1ccc(Oc2ccc(S(=O)(=O)Nc3ccc4c(c3)N(C)C(=O)C4)cc2)cc1 — IC50 (BV-2; PGE2 release, inhibitor; LPS-stimulated): 0.016 µM
C=C1C(=O)OC2C1CCC(C)(O)C13C=CC(C)(C21)C1(C3)C(=O)OC2C3C(C)=CCC3C(C)(O)CC(OC(C)=O)C21 (stereo not drawn) — IC50 (AML12; lipid accumulation, Nile Red staining; together with: palmitate/oleate): 6.81 ± 0.48 µM
CCCC(=O)Oc1c(C)c(OC)c2c(c1C)OC(=O)[C@@H](CC)[C@]2(O)/C=C/c1ccccc1 (racemic) — IC50 (FaDu; cell growth or viability, SRB; 72 h): > 50 µM
CC(=O)NCCOCCOCCOCCNC(=O)c1cc(C(=O)N2CCNCCNCCNCC2)c(O)c(C(=O)N2CCNCCNCCNCC2)c1 — IC50 (PK-59; cell growth or viability, MTT; 24 h): > 1000 µM
CCCCCCCCCC(=O)[O][Pt]([Cl])([Cl])[O]C(=O)CCCCCCCCC.N.N — IC50 (A549/DDP cisplatin-resistant; MTT; 48 h, together with: survivin siRNA 10 nM transfected 24 h before): 4.74 ± 3.03 µM
CC(C)=CC1OC(C)(C)C2C=C3C(=O)C(Cl)=CC(O)C3C3C(O)C4OC4C(=O)C132 (stereo not drawn) — IC50 (HEL; cell growth or viability, MTS): 1.41 µM
CCCCCC(=O)Oc1c(C)c(OC)c2c(/C=C/c3ccccc3)c(CCCC)c(=O)oc2c1C — IC50 (FaDu; cell growth or viability, SRB; 72 h): > 50 µM
CC(C)C[C@](O)(C(=O)OCc1ccc(O[C@@H]2O[C@H](CO)[C@@H](O)[C@H](O)[C@H]2O)cc1)[C@H](O)C(=O)OCc1ccc(O[C@@H]2O[C@H](CO)[C@@H](O)[C@H](O)[C@H]2O)cc1 — IC50 (T47D breast cancer; cell viability, MTT; DMEM with 10% FBS; 48 h): > 200 µM
CCn1cc(-c2cccc(C(F)(F)F)c2)c2sc(C(=N)NC3CCS(=O)(=O)CC3)cc2c1=O — IC50 (Kasumi 1; cell growth or viability, ATP luminescence): 4.46 µM
CN(C)Cc1nc(Nc2ccc(-c3cnc4cc(F)ccn34)c3c2C(=O)NC3)ccc1C1CCOC1 (stereo not drawn) — IC50 (human B cells; western blot, item: BLNK phosphorylation; together with: anti-IgM): 0.048 µM

Repeated from above:
CC1(C)CC(=O)C2=C(C1)Oc1c(O)cccc1C2n1nnc2ccccc21 (stereo not drawn) — IC50 (3T3-L1; cell growth or viability, MTT; 72 h): 75.8 µg/mL
N#Cc1c(N)nc2c(c1-c1ccc[nH]1)Cc1cc(O)ccc1-2 — IC50 (HBP-ALL; cell viability, CellTiter-Glo; no inhibition at 100 µM): 12 µM
C=C1C(=O)OC2C1CCC(C)(O)C13C=CC(C)(C21)C1(C3)C(=O)OC2C3C(C)C(=O)CC3C(=C)CC(OC(=O)C(C)=CC)C21 (stereo not drawn) — IC50 (AML12; lipid accumulation, Nile Red staining; together with: palmitate/oleate): 8.43 ± 1.21 µM
CCCC(=O)[O][Pt]([Cl])([Cl])[O]C(=O)CCC.N.N — IC50 (A549/DDP cisplatin-resistant; MTT; 48 h, together with: survivin siRNA 10 nM transfected 24 h before): 13.5 ± 4.03 µM
CC[C@H]1CC[C@H]2[C@@H]3C[C@@H](O)[C@@]4(O)C[C@H](N)CC[C@]4(C)[C@H]3CC[C@]12C — IC50 (HMC3; nuclear intensity, high-content imaging; geometric mean): 1.04 µM
